# Assay results collected from several papers.
# A part holds a random share of what one study measured. Values joined by “and” are separate records of one study, mostly repeats; a detail may differ.
# Chain of UniProt P21917 (whole entry, looked up): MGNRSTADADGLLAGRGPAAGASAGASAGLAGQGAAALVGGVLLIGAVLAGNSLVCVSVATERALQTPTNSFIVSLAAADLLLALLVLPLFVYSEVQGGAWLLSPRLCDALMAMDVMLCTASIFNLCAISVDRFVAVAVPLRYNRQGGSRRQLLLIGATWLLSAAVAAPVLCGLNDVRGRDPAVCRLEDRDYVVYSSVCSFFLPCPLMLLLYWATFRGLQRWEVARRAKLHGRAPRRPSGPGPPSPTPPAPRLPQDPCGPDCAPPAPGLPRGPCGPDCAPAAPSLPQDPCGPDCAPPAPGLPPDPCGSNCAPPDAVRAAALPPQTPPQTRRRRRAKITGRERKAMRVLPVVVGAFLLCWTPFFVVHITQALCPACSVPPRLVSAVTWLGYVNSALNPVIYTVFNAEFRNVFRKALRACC
# Chain of UniProt Q99720 (whole entry, looked up): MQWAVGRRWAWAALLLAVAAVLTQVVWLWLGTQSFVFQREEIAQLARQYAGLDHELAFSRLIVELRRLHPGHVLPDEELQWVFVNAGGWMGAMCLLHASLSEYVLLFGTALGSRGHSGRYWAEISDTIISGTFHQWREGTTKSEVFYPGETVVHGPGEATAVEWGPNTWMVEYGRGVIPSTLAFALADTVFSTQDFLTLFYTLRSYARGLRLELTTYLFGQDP
# Chain of UniProt Q9H3N8 (whole entry, looked up): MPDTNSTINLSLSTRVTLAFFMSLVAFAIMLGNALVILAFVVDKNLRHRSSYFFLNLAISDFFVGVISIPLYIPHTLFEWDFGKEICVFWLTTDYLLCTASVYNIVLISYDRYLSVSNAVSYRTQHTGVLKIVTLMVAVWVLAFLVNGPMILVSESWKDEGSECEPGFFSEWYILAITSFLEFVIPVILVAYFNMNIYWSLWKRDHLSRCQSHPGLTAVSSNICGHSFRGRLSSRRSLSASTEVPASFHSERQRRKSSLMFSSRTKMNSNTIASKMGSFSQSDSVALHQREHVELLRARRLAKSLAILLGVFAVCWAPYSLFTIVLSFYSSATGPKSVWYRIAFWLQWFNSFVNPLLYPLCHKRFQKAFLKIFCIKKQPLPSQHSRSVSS
# Chain of UniProt P35348 (whole entry, looked up): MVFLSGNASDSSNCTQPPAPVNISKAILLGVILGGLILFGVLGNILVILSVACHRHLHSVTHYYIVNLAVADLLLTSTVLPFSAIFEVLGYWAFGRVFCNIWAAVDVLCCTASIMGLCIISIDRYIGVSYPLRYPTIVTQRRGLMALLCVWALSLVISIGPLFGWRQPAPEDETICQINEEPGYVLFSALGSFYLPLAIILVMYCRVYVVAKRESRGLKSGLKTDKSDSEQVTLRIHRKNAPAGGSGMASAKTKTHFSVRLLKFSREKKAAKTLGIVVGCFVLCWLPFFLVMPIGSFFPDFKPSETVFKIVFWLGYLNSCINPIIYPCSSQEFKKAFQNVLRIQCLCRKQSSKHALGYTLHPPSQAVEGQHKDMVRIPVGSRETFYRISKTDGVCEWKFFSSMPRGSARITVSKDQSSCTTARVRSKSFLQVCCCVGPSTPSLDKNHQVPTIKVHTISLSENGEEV
# Chain of UniProt P50406 (whole entry, looked up): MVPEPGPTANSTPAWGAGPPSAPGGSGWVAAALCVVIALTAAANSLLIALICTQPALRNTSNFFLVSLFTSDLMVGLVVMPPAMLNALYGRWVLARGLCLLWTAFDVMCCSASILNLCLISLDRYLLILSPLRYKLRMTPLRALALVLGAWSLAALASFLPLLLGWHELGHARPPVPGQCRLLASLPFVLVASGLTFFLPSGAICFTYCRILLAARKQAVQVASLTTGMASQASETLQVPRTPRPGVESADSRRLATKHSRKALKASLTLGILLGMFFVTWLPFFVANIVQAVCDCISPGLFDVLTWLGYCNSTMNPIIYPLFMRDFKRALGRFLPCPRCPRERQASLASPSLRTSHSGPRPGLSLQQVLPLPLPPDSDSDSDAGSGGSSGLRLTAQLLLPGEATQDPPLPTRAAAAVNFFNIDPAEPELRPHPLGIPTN
# Chain of UniProt P35368 (whole entry, looked up): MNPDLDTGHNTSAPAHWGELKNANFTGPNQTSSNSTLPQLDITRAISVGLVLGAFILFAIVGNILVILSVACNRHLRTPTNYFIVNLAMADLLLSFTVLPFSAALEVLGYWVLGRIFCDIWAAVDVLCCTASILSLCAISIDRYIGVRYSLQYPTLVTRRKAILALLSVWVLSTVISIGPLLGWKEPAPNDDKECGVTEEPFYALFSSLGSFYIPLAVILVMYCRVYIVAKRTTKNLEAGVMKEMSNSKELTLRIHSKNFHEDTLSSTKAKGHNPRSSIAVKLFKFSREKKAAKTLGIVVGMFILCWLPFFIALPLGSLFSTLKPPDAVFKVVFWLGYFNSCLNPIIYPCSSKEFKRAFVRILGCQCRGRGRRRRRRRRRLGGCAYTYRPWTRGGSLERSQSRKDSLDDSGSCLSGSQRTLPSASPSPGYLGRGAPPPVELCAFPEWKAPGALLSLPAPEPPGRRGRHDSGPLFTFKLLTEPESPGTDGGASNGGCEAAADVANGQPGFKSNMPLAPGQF
# Chain of UniProt P25100 (whole entry, looked up): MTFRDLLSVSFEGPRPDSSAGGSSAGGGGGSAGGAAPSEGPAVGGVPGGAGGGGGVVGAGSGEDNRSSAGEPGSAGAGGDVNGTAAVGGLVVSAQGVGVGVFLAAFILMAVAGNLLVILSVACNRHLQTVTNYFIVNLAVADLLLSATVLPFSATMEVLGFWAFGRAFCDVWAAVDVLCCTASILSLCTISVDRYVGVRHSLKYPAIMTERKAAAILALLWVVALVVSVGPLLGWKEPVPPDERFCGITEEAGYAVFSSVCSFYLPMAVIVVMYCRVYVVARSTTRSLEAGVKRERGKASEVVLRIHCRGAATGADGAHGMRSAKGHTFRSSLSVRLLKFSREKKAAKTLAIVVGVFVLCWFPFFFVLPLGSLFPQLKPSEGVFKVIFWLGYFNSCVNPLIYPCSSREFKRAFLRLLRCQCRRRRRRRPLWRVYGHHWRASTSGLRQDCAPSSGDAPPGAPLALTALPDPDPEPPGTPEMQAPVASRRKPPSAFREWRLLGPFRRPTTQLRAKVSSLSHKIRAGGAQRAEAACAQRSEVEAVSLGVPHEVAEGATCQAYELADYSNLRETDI
# Chain of UniProt P14416 (whole entry, looked up): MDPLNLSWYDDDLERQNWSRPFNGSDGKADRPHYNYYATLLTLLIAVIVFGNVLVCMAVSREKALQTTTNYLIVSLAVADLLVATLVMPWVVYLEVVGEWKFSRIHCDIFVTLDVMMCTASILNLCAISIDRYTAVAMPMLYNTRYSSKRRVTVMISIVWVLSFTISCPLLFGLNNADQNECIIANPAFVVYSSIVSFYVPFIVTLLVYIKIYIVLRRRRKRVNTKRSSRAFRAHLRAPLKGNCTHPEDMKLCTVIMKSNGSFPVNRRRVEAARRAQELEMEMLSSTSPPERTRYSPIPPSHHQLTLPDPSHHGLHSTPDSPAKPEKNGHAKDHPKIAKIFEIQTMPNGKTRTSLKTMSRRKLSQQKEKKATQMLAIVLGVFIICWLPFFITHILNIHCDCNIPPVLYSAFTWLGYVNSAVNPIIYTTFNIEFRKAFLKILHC
# Chain of UniProt P18089 (whole entry, looked up): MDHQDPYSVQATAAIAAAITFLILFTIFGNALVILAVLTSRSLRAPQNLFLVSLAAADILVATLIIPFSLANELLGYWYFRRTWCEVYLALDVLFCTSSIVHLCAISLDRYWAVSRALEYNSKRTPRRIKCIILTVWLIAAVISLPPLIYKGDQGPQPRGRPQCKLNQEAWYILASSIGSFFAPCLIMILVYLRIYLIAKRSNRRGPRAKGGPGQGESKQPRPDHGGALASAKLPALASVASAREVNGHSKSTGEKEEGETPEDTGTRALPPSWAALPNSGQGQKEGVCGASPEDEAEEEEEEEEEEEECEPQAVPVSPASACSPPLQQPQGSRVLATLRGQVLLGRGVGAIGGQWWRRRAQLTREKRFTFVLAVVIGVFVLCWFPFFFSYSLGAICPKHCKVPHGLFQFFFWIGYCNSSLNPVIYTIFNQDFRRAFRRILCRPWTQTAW

# Block 1
# Target: Serine/threonine-protein kinase pim-1 (PIM1, Homo sapiens, UniProt P11309)
# Chain of UniProt P11309 (whole entry, looked up): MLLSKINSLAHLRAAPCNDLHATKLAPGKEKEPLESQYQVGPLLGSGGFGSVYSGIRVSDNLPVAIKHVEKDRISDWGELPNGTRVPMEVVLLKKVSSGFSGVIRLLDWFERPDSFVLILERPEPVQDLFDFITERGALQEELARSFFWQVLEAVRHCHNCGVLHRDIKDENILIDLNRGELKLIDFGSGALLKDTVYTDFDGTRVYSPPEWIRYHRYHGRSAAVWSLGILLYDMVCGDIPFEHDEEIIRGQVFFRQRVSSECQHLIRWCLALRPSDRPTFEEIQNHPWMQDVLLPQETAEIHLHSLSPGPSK
# Observed: enzyme activity
# Mode: inhibitor
# Tested at: 0.5 µM
# Relative to: control
Structure (SMILES),remaining activity [%]
O=C1NC(=O)c2c1c1c3ccccc3[nH]c1c1[nH]c3cc(Br)ccc3c21,8.84
CN1CCN(c2ccc3nc(-c4c(N)c5c(F)cccc5[nH]c4=O)[nH]c3c2)CC1,99.2
c1ccc(-c2n[nH]c3c2oc2ccccc23)cc1,83.3
O=C1Nc2ccc(Br)cc2/C1=C/c1cc2c([nH]1)CCCC2,101
Cc1cc(Nc2cc(N3CCN(C)CC3)nc(Sc3ccc(NC(=O)C4CC4)cc3)n2)[nH]n1,98.6
CCCCc1c(-c2ccc(OC)cc2)[nH]c2nccnc12,97
N#Cc1cnc2cnc(NCc3cccnc3)cc2c1Nc1ccc(F)c(Cl)c1,92.7
O=C1NC(=O)c2c1c1c3ccccc3[nH]c1n1cncc21,1.43
c1ccc2c(-c3ccncc3)c[nH]c2c1,93.5
COc1ccc2c(c1)c(C1=C(c3c[nH]c4ccccc34)C(=O)NC1=O)cn2CCCN(C)C,11.6

# Block 2
# Structure (SMILES): NS(=O)(=O)c1cc(NC(=O)C2(c3ccccc3Cl)CC2)ccc1Oc1cccc(Cl)c1
# Observed: cell-free assay
# Tested at: 10 µM
target,inhibition [%]
"DRD4 (Homo sapiens, UniProt P21917)",27
"ADRA1B (Homo sapiens, UniProt P35368)",-8.97
"ADRA1A (Homo sapiens, UniProt P35348)",15.1
"ADRB3 (Homo sapiens, UniProt P13945)",-5.77
"ADRA1D (Homo sapiens, UniProt P25100)",6.88
"HRH3 (Homo sapiens, UniProt Q9Y5N1)",3.87
"HRH4 (Homo sapiens, UniProt Q9H3N8)",0.09
"ADRA2B (Homo sapiens, UniProt P18089)",43.4
"DRD2 (Homo sapiens, UniProt P14416)",-9.74
"HTR6 (Homo sapiens, UniProt P50406)",-4.73
"SIGMAR1 (Homo sapiens, UniProt Q99720)",18.6

# Block 3
# Target: Calcium/calmodulin-dependent protein kinase type II subunit alpha (CAMK2A, Homo sapiens, UniProt Q9UQM7)
# Chain of UniProt Q9UQM7 (whole entry, looked up): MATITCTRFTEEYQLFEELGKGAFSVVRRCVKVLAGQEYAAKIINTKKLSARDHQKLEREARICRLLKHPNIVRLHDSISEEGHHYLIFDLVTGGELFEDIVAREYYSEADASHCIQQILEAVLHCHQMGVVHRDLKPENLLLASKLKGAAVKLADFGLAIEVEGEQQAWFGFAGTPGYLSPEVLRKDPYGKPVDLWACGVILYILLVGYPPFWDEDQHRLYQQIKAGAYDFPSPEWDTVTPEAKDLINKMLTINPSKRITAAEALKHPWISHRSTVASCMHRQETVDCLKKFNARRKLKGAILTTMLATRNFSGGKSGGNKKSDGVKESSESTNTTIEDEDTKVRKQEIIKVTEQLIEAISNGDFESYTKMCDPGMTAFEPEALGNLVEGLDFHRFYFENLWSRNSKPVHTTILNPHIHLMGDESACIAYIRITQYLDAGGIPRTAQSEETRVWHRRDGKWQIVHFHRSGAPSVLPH
# Observed: enzyme activity
# Mode: inhibitor
# Tested at: 10 µM
SMILES,inhibition [%]
COc1c(O)c2c(=O)cc(OC)c3c4c(OC)cc(=O)c5c(O)c(OC)c6c(c(c1CC(C)=C6C(C)=O)c23)c54,10
Cc1nnc(SCC2=C(C(=O)O)N3C(=O)[C@@H](NC(=O)Cn4cc(Cl)c(=O)c(Cl)c4)[C@H]3SC2)s1,2
CO[C@@H]1[C@@H](OC(N)=O)[C@@H](O)[C@H](Oc2ccc3c(O)c(NC(=O)c4ccc(O)c(CC=C(C)C)c4)c(=O)oc3c2C)OC1(C)C,-5
C[N+](C)(C)C[C@H](O)CC(=O)O,65
CC(=O)OC(C)C(C)C(=O)OC[C@@]12[C@H]3C[C@]4(C)C(=CC[C@@H]5[C@@]6(C)CC[C@H](O[C@@H]7O[C@H](C(=O)O)[C@@H](O[C@@H]8O[C@H](CO)[C@@H](O)[C@H](O)[C@H]8O)[C@H](O)[C@H]7O[C@@H]7OC[C@@H](O)[C@H](O)[C@H]7O)[C@@](C)(CO)[C@@H]6CC[C@]54C)[C@@H]1CC(C)(C)[C@H](O3)[C@@H]2O (stereo partly shown),-14
Cc1[nH]ccc2c1[nH]c1cc(=O)ccc12,0
C=C1CC[C@@H]2[C@](C)(COC(=O)CCC(=O)O)[C@H](OC(=O)CCC(=O)O)CC[C@@]2(C)[C@@H]1/C=C/C1=CCOC1=O,-1
CC(=O)/C=C/c1ccc(O)c(O)c1,-42

# Block 4
# Compound: CC(C)(C(=O)O)[C@H](NC(=O)Cc1cccc(I)c1)c1ccc2oc(=O)[nH]c2c1
# Technique: Incucyte 3D growth
# Tested at: 30 µM
# Direction: higher = more growth
cell line,setting,spheroid area
A375,450.52 h,1.55e+08 a.u. and 1.44e+08 a.u. and 1.73e+08 a.u. and 1.68e+08 a.u. and 1.79e+08 a.u. and 1.6e+08 a.u.
IPC-298,60 h,2.8e+07 a.u. and 2.43e+07 a.u. and 2.83e+07 a.u. and 2.96e+07 a.u. and 2.33e+07 a.u. and 3.08e+07 a.u.
A375,468.52 h,1.5e+08 a.u. and 1.78e+08 a.u. and 1.45e+08 a.u. and 1.6e+08 a.u. and 1.65e+08 a.u.
KP-4,168 h,2.3e+07 a.u. and 3.07e+07 a.u. and 2.52e+07 a.u. and 1.71e+07 a.u. and 2.69e+07 a.u. and 2.36e+07 a.u.
A375,432.52 h,1.51e+08 a.u. and 1.6e+08 a.u. and 1.84e+08 a.u. and 1.74e+08 a.u. and 1.81e+08 a.u. and 1.66e+08 a.u.
KP-4,84 h,1.59e+07 a.u. and 1.46e+07 a.u. and 1.79e+07 a.u. and 1.63e+07 a.u. and 1.55e+07 a.u. and 1.43e+07 a.u.
MEL-JUSO,486.52 h,2.49e+07 a.u. and 4.97e+07 a.u. and 3.18e+07 a.u. and 1.86e+07 a.u. and 7.62e+07 a.u. and 2.3e+07 a.u.
PC-9,12 h,2.55e+08 a.u. and 2.41e+08 a.u. and 2.48e+08 a.u. and 2.4e+08 a.u. and 2.37e+08 a.u.
NCI-H358,114 h,4.66e+06 a.u. and 5.55e+06 a.u. and 3.81e+06 a.u. and 5.59e+06 a.u. and 5.47e+06 a.u.
KP-4,300 h,1.03e+08 a.u. and 8.51e+07 a.u. and 7.39e+07 a.u. and 1.1e+08 a.u. and 5.55e+07 a.u. and 3.27e+07 a.u.
A375,216 h,1.29e+08 a.u. and 1.27e+08 a.u. and 1.25e+08 a.u. and 1.51e+08 a.u. and 1.24e+08 a.u. and 1.1e+08 a.u.
